Experimental data of several laboratories.
Numbered parts are unrelated; each lists some results of a single study.

Series 1 — technique: RNA Bind-n-Seq; form: RNA; matrix: in vitro; tested at: 365 nM; reference: no-protein control; reading: higher = stronger binding
Target: RNA binding protein fox-1 homolog 2, RRM domain, GST-SBP tag (RBFOX2, Homo sapiens, UniProt O43251-10, residues 100-194)
Setting: natural RNA segment, single round, ends assumed
Construct (chain): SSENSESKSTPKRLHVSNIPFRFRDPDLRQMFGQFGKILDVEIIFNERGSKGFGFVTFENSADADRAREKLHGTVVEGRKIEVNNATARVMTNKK
Oligonucleotide | RBNS enrichment (R)
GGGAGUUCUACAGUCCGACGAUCGUGAUGUUAAUACAGGCUUCUUGUUUUAGGAAGCAUCACCUAUACUCUGAAGCCUUUAAACUCUGAAGAGAAUUGUUUCAGAGUUAUUCCAAGCACUUGUGCAACUUGGAUGGAAUUCUCGGGUGCCAA | 1.2
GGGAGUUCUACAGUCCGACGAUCUUGAAAAUGAUCCCUCUAAAAUGCUGUUGAGCUUGUGUUCAGUGUAGCAGGAGGAUCUGAACUUUUCCUGGAGAGGAGGUGAUCGGGAUGCCAUUUGGCAGCUUAAGCACUGGAAUUCUCGGGUGCCAA | 0.859
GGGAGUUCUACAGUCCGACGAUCUGUUAUCUUUAUUUAGCUGAGGUUAAAUUAAUCUCUGUUGUGCAAGAAAAACAUGAAGCUUGCCCCUCGAGGGAUCUACUCCUGUUUUUCCCGUCAUCUGUUGGCUUCAGUGGAAUUCUCGGGUGCCAA | 0.308
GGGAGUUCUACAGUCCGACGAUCAAAUAUCUUUUGGUUCCAAAUAGAAAGACAAUUCUUUAUUGUCUGACUGUAAUACAGCCUUCAUUGUGCUAUUCAUCCCAUUGUUUGCUUCACUCUGUCUGUGUAAAAGCUGGAAUUCUCGGGUGCCAA | 0.67
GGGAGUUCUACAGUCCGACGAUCUAUUCAUGACCAAACUAGCCCUGACACUCAGGGACCUGGGCCUCUGCUGACUGUCAGGAGCAAAACUUGAAGGUGUGGCACCGCAGGACUGGAAGAGAGUGGAACACCUUUGGAAUUCUCGGGUGCCAA | 0.787
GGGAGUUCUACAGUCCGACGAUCGACUCUGAUUACAGUCUGACCUAGAAAGACCAAAGAGGGGUAUGCUCAUGACAUCUGUAAAUGCUGCUGUGUCUGGAAAGAAAGUCUUUAAAUCACUGGUGAAAGUGGCAUGGAAUUCUCGGGUGCCAA | 1.25
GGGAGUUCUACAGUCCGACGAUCAGGACUCCAGUGUGACCCUGCACUGAGAGGACCAAAGCGUCAUUGCAGUCUUCUCUCCACCCUGUACCCCGGAGUCCUGAUUGGAUGUCUGCAGAGGCAGAUGGGGCUCCUGGAAUUCUCGGGUGCCAA | 0.382
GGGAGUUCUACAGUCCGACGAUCCCAGGGCGCUAGAAGCCGGGUGGGGGUGAGGGUAGCCCUUGAGCCCUGUCCCUGCGGCUGUGAGAGCAGCAGGACCCUGGGCCAGUUCCAGAGACCUGGGGGUGUGUCUGUGGAAUUCUCGGGUGCCAA | 0.402

Series 2 — technique: protein-binding microarray; form: double-stranded DNA, one strand shown; matrix: in vitro; tested at: 2200 nM top; setting: 60-bp whole probe; with: salmon DNA 0.4 mg/ml; reference: random background probes; reading: higher = stronger binding; shared flanks, not repeated: GCCTAGCAC … GTCTTGATTCGCTTGACGCTGCTG
Target: Interferon regulatory factor 7, full length, phosphomimetic (IRF7, Homo sapiens, UniProt Q92985, residues 1-503, S471D/S472D/S475D/S476D/S477D/S483D/S484D/S487D)
Target sequence (chain): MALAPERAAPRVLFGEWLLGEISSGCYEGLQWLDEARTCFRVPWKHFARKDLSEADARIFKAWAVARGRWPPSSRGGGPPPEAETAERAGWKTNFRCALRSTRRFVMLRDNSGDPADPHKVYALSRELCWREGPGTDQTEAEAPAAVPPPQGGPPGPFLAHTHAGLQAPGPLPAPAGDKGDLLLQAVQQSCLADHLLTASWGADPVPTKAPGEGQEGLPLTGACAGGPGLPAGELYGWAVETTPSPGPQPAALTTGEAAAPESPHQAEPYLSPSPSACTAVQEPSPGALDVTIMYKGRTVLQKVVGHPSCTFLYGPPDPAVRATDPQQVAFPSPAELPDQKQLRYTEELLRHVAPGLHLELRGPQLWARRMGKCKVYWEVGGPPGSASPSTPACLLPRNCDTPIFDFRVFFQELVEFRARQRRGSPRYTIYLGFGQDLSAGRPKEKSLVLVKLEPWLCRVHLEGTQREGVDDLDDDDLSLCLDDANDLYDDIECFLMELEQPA
Oligonucleotide | fitted relative affinity [z-score]
TTAGGTATCGATCTCGGTTAGTGCTAG | 0.822
TTAGGTAGCGACTATCGGTTAGTGCTA | -0.216
TTCTCTTTCACTGCTGCCCTGTGCTAG | 2.76
GACGAACTGAGACTGCAGACGTGCTAG | -0.183
AAGTTTCTCCTTTGTAAATAGTGCTAG | 2.7
GACGGTTCCGTTTTCCTGACGTGCTAG | 3.96
GACGGACTGGACTAACGGGACGTGCTA | -1.11
TTAGAACTGAGTTTCGGTTAGTGCTAG | 4.84
GACGCTATCGACTTTCGGGACGTGCTA | 3.45
TCAGAATTTACTTTCTAACTGTGCTAG | 1.26
GACGGTTTCGTTCTCGGGACGTGCTAG | 6.45
CTCTGCTTGCGTCTGGGTGTGTGCTAG | 0.494
TTAGGTTTCGGTTTCGGTCAGTGCTAG | 14.7

Series 3 — technique: RNA Bind-n-Seq; form: RNA; matrix: in vitro; tested at: 200 nM; setting: whole 134-nt RNA, ends assumed; with: 150 mM KCl; reference: input library; reading: higher = stronger binding
Target: Ras GTPase-activating protein-binding protein 1, full length (G3BP1, Homo sapiens, UniProt Q13283)
Chain of UniProt Q13283 (whole entry, looked up): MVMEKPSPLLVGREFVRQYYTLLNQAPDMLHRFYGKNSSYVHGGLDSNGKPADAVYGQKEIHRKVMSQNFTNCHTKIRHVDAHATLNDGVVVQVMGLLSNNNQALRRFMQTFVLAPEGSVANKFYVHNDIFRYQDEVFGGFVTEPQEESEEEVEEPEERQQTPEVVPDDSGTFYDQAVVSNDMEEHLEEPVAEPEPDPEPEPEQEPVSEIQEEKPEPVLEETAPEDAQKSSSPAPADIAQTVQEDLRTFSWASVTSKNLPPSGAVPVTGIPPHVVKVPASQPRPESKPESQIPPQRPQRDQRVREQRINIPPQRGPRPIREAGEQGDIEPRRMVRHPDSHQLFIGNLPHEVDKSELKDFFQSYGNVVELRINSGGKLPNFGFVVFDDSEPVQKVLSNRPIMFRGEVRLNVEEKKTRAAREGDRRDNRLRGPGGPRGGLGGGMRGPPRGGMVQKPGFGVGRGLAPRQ
Oligonucleotide | log2 enrichment
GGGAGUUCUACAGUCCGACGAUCCAAGUCCUGUGCUACACAUCGUAUGUACCGAAUCGGCCCGGGGCCCGGGCCCGGGGAAAGUAUUAUGUUACGCCGUUCGGAUCUGCACUUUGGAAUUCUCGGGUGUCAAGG | -0.698
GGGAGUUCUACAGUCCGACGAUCAGUCCUGUGCUACACAUCGUAUGUACCGAAUCGGGGAGGGGAAAAAGGGGUUUGGGGAAAGUAUUAUGUUACGCCGUUCGGAUCUGCACUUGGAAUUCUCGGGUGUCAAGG | 0.317
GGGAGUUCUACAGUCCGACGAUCCAAGUCCUGUGCUACACAUCGUAUGUACCGAAUCGGGUGGGUUUUUUUGGGAGGGAAAGUAUUAUGUUACGCCGUUCGGAUCUGCACUUCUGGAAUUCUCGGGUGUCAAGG | 0.362
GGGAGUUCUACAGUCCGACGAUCAAGUCCUGUGCUACACAUCGUAUGUACCGAAUCGGUUUUUGGUUUUUGGUUUUUGGGAAAGUAUUAUGUUACGCCGUUCGGAUCUGCACUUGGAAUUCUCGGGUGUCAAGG | -1.53
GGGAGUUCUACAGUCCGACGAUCAAGUCCUGUGCUACACAUCGUAUGUACCGAAUCGGAAAAAAAGGAAAAAGGAAAGGAAAGUAUUAUGUUACGCCGUUCGGAUCUGCACUUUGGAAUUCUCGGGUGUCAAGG | -1.37
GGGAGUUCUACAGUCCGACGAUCCAAGUCCUGUGCUACACAUCGUAUGUACCGAAUCGGGUUUGGGUUUUUGGGAGGGAAAGUAUUAUGUUACGCCGUUCGGAUCUGCACUUCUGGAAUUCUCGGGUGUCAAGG | 0.668
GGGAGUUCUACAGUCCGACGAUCUCCUCAAGUCCUGUGCUACACAUCGUAUGUACCGAAUCGGGGAGGAGGAGGAAAGUAUUAUGUUACGCCGUUCGGAUCUGCACUUCCAGCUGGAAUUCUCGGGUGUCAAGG | -0.355
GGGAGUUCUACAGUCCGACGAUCUGGCCCUGGUGGCAUGCGGGGAGGAAGAGGUGGCCUCAUGGAUCUUGGUGGUCCCGGUGGAAUGUUCAGAGGUGGCCGUGGUGGAGACAGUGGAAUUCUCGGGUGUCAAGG | 0.256
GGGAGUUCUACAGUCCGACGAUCCUGUGCUACACAUCGUAUGUACCGAAUCGGGGAAAGGGGAAAAAAAGGGGUUUUUUUGGGGAAAGUAUUAUGUUACGCCGUUCGGAUCUGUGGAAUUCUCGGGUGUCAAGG | -0.0569

Series 4 — technique: RNA Bind-n-Seq; form: RNA; matrix: in vitro; tested at: not given; setting: RNA with constant flanks, ends assumed; reference: input RNA pool; reading: higher = stronger binding
Target: RING finger protein unkempt homolog, zinc fingers 1-6, GST-SBP tag (UNK, Homo sapiens, UniProt Q9C0B0, residues 30-357)
Chain of UniProt Q9C0B0 (30-357, looked up): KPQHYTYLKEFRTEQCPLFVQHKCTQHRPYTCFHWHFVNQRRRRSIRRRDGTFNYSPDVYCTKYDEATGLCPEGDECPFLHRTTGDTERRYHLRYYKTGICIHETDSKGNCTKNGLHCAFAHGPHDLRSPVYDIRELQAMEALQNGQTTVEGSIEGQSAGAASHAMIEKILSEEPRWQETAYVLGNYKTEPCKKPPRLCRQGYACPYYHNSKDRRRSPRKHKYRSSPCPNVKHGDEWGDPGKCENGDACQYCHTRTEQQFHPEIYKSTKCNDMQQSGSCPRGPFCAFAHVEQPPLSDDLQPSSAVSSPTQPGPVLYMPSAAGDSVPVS
Oligonucleotide | bound/input enrichment
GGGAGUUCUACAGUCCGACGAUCGGAAUUGCAAACUGAUUCAAGUUUGAAUAUCACAAUGUUAGCUUUCUAAUUCCACACAGACCGUUUUUACAGUUUCUAACCCCACAUCAAUCCAUCACCGUUUAUAAAGAUCAGCUUCCCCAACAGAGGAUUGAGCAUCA | 0.544 ratio
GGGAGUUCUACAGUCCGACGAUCUUCCUUACCCGGCCUAAGGUCCCUGUCUUGCAGCUGGAUAGUGGCAACUACCUCUUCUCUGCCCGUGCAAUCUGCCGAUAUUUUUUUCUGUUAUGUGGCUGGGAACAAGAUGAUCUCACCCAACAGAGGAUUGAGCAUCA | 0.258 ratio
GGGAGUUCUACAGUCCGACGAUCACUUGUAAUUUCUUUCUGCUUAGAAUCUAAAGAUGUGUUUAGAACCUCUUGUUUAAAAAUAACCGACUGCUUAUCAUAAAAUCACAUCUCACACAUUUGAGGCAGUGGUCAAACAGGUAACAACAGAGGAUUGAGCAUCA | 0.53 ratio
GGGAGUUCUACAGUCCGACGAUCAAAGAAAAUGGAGAUGUAAAGAUUUUACUGAAAAGUGGGAAGGAGAAACCAAAAACAAAUACCGAAGACUUACAAAUUAAAAAAGUAAAGAAGAAAAAGAAAAAGAAACACAAAGAGAAUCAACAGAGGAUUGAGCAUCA | 0.397 ratio
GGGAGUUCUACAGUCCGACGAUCUCCAGGUCUCUCCAAACUGACUAUAUAUUUAUUUGUUAUUUUAAAAAUACAACUAUAUUUUGGGCCGUUUUUUUUUUUUUUUUUUUGAUAAGUUGGUGUAAGGCUAUGUGACUUGAUCAACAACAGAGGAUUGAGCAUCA | 1.44 ratio
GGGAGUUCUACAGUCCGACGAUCGUUCAGUUGGGGGGUAGACUGCUCAGUGAUAGUGCUUGCCAAGCUCUACCCUUAACUCCUCCGGUUGAACUGUGGCCUUUCCCACAAUCUCCCUCACCCCAAACUAAAACCAAAUCCAAGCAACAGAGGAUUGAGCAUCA | 0.402 ratio

A few entries again (series 2):
Oligonucleotide | fitted relative affinity [z-score]
GACGAACTGAGACTGCAGACGTGCTAG | -0.183
AAGTTTCTCCTTTGTAAATAGTGCTAG | 2.7
GACGGTTCCGTTTTCCTGACGTGCTAG | 3.96
GACGGACTGGACTAACGGGACGTGCTA | -1.11
TTAGAACTGAGTTTCGGTTAGTGCTAG | 4.84
